Experimental data gathered from unrelated publications.
Protocols differ between the studies behind these lines. Values joined by “and” are separate records of one study, mostly repeats; a detail may differ. ± marks the error that the study gave.

SMILES	cell line	assay	conditions	how to read	quantity	value
Cc1nc(Nc2ncc(C(=O)Nc3c(C)cccc3Cl)s2)cc(N2CCN(C(=O)CCOCCNC(=O)CN)CC2)n1	K562	cell growth or viability, CCK-8	750 pM	–	viability	90% and 87%
N=C(N)c1ccc(OCCCOc2ccc(C(=N)N)cc2)cc1	Calu-3	–	48 (unit not given)	–	CC50	> 500 µM
O=C(OC[C@@]1(O)C(=O)C=C[C@H]2[C@@H]1[C@H]1C=C[C@@H]2C(=O)[C@]1(O)COC(=O)c1ccccc1)c1ccccc1	K562	MTT	range over 50 to 100 µg/mL	–	viability	8.73 to 15.4%
NC[C@H]1O[C@H](O[C@H]2[C@H](O)[C@@H](O[C@H]3O[C@H](Cn4cc(CNC(=S)Nc5ccc6c(c5)C(=O)OC65c6ccc(O)cc6Oc6cc(O)ccc65)nn4)[C@@H](O)[C@H](N)[C@H]3O)[C@H](N)C[C@@H]2N)[C@H](O)[C@@H](O)[C@@H]1O	C2C12	flow cytometry	5 µM, 24 h, unit not given	baseline: normalized fluorescence	cellular uptake	5 ± 0.1
COc1cc2nc(NC3CCN(Cc4ccc(C(N)=O)cc4)CC3)nc(Oc3c(C)cc(C#N)cc3C)c2cc1OC	MT4	cell growth or viability, MTT	–	–	CC50	15.5 µM
CCc1c(-c2ccc3[nH]ncc3c2)cnc(N)c1-c1ccc(O)cc1	CHP-212 resistant sublines (heterozygous USP7 V517F)	cell viability	12.5 µM	–	viability	87.2% and 85.7%
Nc1ncnc2c1ncn2[C@@H]1O[C@H](CSCc2ccc3ccccc3c2Br)[C@@H](O)[C@H]1O	Calu-3	–	concentration not given	–	cytotoxicity	not toxic
C=CS(=O)(=O)Oc1ccc(OC)c(-c2c[nH]c3ncc(-c4cncc(C(=O)N(C)C)c4)cc23)c1	Ba/F3 parental, IL-3-dependent	–	concentration not given	–	cytotoxicity	not toxic
CC[C@H](C)[C@H](NC(=O)[C@@H](NC(=O)[C@@H](N)CO)[C@@H](C)CC)C(=O)N[C@@H](CC(N)=O)C(=O)N[C@@H](Cc1ccccc1)C(=O)N[C@@H](CCC(=O)O)C(=O)N[C@@H](CCCCNC(=O)c1ccc2c(c1)C(=O)OC21c2ccc(O)cc2Oc2cc(O)ccc21)C(=O)N[C@@H](CC(C)C)C(=O)O	PANC-1, single microinjected	CE-LIF	100 µM, 2 min, 37 °C	–	intact peptide remaining	8.8 ± 5.3%
O=C1NC2(CC2)COc2ncc(F)cc2[C@H]2COCCN2c2ccn3ncc1c3n2	CHL	–	75 µg/mL, 4 h, with rat liver S9	–	structural aberrations	0.3%
O=C1/C(=C/c2ccc(O)c(Br)c2)CCC/C1=C\c1ccc(O)c(Br)c1	HCT-8	luminescent ATP cell viability	24 h	–	CC50	91 µM
N[C@@H](CNC(=O)N[C@@H](CS)C(=O)NCC(=O)O)C(=O)O	RPMI-2650	immunoblot	0.5 mM, 24 h	–	ZO-1 level	no effect
O=C(O)/C=C\C(=O)NCCCOCCOCCOCCCNC(=O)/C=C\C(=O)O	Hs68	MTT	up to 1000 ppm, 24 h	–	cytotoxicity	not toxic
CC(=O)NCCNc1ncc(C(=O)NC2=NN(c3ccc(Cl)c(Cl)c3)CC2)c(C)n1	K562	CellTiter-Glo	concentration not given	–	cytotoxicity	not toxic

For quick reference, copied from above:
SMILES	cell line	assay	conditions	how to read	quantity	value
N=C(N)c1ccc(OCCCOc2ccc(C(=N)N)cc2)cc1	Calu-3	–	48 (unit not given)	–	CC50	> 500 µM
